Assay results of several laboratories.
Every numbered part comes from another study and shows a few of its results, in no order.

Series 1 — method: protein binding microarray; molecule type: double-stranded DNA, one strand shown; medium: in vitro; concentration: not given; baseline: not given; reading: higher = stronger binding
Target: Histone acetyltransferase KAT6A, both winged helices, GST fusion (KAT6A, Homo sapiens, UniProt Q92794, residues 1-181)
Setting: 8-mer, flanks averaged, mean of 2 arrays, mostly near background
Residues (chain): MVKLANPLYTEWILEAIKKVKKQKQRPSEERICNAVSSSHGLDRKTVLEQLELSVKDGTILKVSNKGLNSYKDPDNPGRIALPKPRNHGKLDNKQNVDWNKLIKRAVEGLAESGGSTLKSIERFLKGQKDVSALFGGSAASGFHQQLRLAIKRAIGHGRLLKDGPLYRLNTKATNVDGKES
| Sequence | E-score |
| --- | --- |
| CCTCGCAA | -0.0157 |
| AATTTTTC | -0.055 |
| CGAGCAAC | 0.0795 |
| ATTCAACG | 0.133 |
| CACGCTAA | 0.116 |
| CTACGGAC | 0.236 |

Series 2 — method: RNA Bind-n-Seq; molecule type: RNA; medium: in vitro; concentration: 1 µM; setting: whole 134-nt RNA, ends assumed; together with: 150 mM KCl; baseline: input library; reading: higher = stronger binding
Target: Ras GTPase-activating protein-binding protein 1, RRM domain (G3BP1, Homo sapiens, UniProt Q13283)
Sequence of UniProt Q13283 (whole entry, looked up): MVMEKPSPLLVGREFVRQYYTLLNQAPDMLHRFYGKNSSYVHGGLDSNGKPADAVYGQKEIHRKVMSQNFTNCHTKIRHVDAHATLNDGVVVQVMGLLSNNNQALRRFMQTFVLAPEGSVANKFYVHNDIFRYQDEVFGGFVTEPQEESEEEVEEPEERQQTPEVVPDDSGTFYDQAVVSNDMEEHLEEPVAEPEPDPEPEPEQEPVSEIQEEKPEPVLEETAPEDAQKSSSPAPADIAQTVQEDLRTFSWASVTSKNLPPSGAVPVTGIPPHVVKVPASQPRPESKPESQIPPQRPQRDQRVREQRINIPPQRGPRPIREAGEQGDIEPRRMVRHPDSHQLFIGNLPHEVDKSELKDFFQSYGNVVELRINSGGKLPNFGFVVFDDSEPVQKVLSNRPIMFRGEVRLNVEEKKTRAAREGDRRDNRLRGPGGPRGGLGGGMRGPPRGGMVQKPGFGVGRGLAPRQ
Shared flanks, not repeated: GGGAGUUCUACAGUCCGACGAUC … UGGAAUUCUCGGGUGUCAAGG
| Sequence | log2 enrichment |
| --- | --- |
| CAAGUCCUGUGCUACACAUCGUAUGUACCGAAUCGGUUUUUGGAGGAAAAAAAGGAAAGUAUUAUGUUACGCCGUUCGGAUCUGCACUUC | -0.201 |
| GCAGGAAGUAAAAACAAAUGGAAAUGCUUCGGAUAGUGGCAAAGGUGGGGGUUGCUAAGGAAAGGGUGGGAUGGGAGUGGGUAAAGAGUU | 1.23 |
| CUGUGCUACACAUCGUAUGUACCGAAUCGGGUUUUUUUGGGGUUUUUUUGGUUUUUUUGGGAAAGUAUUAUGUUACGCCGUUCGGAUCUG | -0.176 |
| AGUCCUGUGCUACACAUCGUAUGUACCGAAUCGGUUUUUGGGUUUUUGGUUUUUGGGGAAAGUAUUAUGUUACGCCGUUCGGAUCUGCAC | -0.135 |
| CACAGACAACACGCACCCACACAGACACAGAGGGAAGGGGUUGGGAUGGGGACAAGGUGCACAGCAGGGCGGGGUAGGACCCCAGCCCCU | 0.63 |
| UGGGAGGUGGAUUUUGUUUAUUUUUUUAGCUCAUUUCCAGGGGUGGGAAUUUUUUUUUAAUAUGUGUCAUGAAUAAAGUUGUUUUUGUAA | 1.76 |
| UCCUGUGCUACACAUCGUAUGUACCGAAUCGGGGAAAGGGGAAAAAAAGGGGUUUGGGGAAAGUAUUAUGUUACGCCGUUCGGAUCUGCA | 0.795 |
| ACCAUGCAGGUGGGCAUCUUUGGGAAGUGGGGCAAGGGGGGGAUAGGGAGAGGGGUAACACUUUGGGAACAGGUGGUCCCAGGUCGUUUC | 1.18 |
| CACAGACAACACGCACCCACAAAGACACAGAGGGAAGGGGUUGGGAUGGGGACAGGGUGCACAGCAGGGCGGGGUAGGACCCCAGCCCCU | -0.21 |

Series 3 — method: aptamer microarray, sandwich; molecule type: DNA with 2'F-ANA; medium: in vitro; concentration: 200 nM; together with: Cy3 exosite-II aptamer, 400 nM; reading: higher = stronger binding; sequence: GGTTGGTGTGGTTGG
Target: Prothrombin, mature alpha-thrombin (F2, Homo sapiens, UniProt P00734)
Setting: whole 15-mer aptamer, many near background
| Modification | mean fluorescence intensity [a.u.] |
| --- | --- |
| 2'F-ANA at 4 5 7 9 10 11 13 15 | 42.6 |
| 2'F-ANA at 3 4 6 7 9 11 14 15 | 248 |
| 2'F-ANA at 1 4 5 6 8 10 11 13 14 | 48.5 |
| 2'F-ANA at 3 4 5 6 7 8 9 11 12 14 15 | 65.4 |
| 2'F-ANA at 2 4 5 7 8 10 11 13 14 | 46.1 |

Other studies, line by line
| Substance | target | assay | test system | setting | how to read | quantity | value |
| --- | --- | --- | --- | --- | --- | --- | --- |
| PhoQ, residues 284 288 289 292 302 303 TNSAEL | PhoP, residues 12 14 15 18 19 SYFRT (Escherichia coli, UniProt P23836) | Sort-seq, item: YFP reporter | E. coli | PhoQ-PhoP variant library, together with: 10 µM Mg2+ | baseline: high Mg2+ state, higher = stronger signaling | fold induction | 1.09 |

A few entries again (series 1):
| Sequence | E-score |
| --- | --- |
| CCTCGCAA | -0.0157 |
| CTACGGAC | 0.236 |
